Measurements of several laboratories.
Each line is one published result; not all experiments were run side by side. Values joined by “and” are separate records of one study, mostly repeats; a detail may differ.

| Structure (SMILES) | target or system | test | system | conditions | scale | endpoint | result |
| --- | --- | --- | --- | --- | --- | --- | --- |
| Cc1cc2ccccc2n1CCNC(=O)c1ccc2c(c1)n(C)c(=O)n2C | C6 glioma | cell viability | – | – | – | cytotoxic concentration | > 100 µM |
| Nc1nc(N)c2nc(CNc3ccc(C(=O)N4CCC(C(=O)O)CC4)cc3)cnc2n1 | THP-1-derived macrophages | MTT | – | – | – | CC50 | > 100 µM |
| CC(=O)N(O)CCCCCNC(=O)CCC(=O)N(O)CCCCCNC(=O)CCC(=O)N(O)CCCCCN | LUHMES MT1G-HiBiT neurons, differentiated | – | – | concentration not given | – | cytotoxicity | toxic |
| CC(C(=O)Nc1ccc(C2CCCCC2)cc1)n1cncn1 (stereo not drawn) | – | – | cynomolgus liver microsomes | 1 µM | – | hepatic clearance | 25 mL/min/kg |
| Nc1nc(NS(=O)(=O)c2ccccc2)nc(-c2ccc(Cl)cc2)c1-c1nc2ccccc2s1 | FRhK-4 | cytotoxicity | – | 72 h | – | maximum non-toxic concentration | 100 µg/mL |
| O=C(c1ccc(C2CCCCC2)cc1)N1CC(O)C1 | – | hepatocyte stability | cryopreserved human hepatocytes | 1 µM | – | hepatic clearance | 14 mL/min/kg |
| Cn1cc(-c2ccc(-c3cncc(Cl)c3N3CCC4(CCNC4=O)CC3)cc2)cn1 | COLO 205 | gene expression, microarray, measured: GNAZ mRNA | – | concentration not given, 2 h | baseline: untreated cells | log2 fold change | 1.04 |
| COC(=O)C1CCN(C(=O)c2ccc(NCc3cnc4nc(N)nc(N)c4n3)cn2)CC1 | THP-1-derived macrophages | MTT | – | – | – | CC50 | > 100 µM |
| CCSC(SCC)=C(C#N)c1nc2ccccc2s1 | FRhK-4 | – | – | 72 h | – | maximum non-toxic concentration | 110 µg/mL |
| O=C(CS)NCCCCCC(=O)Nc1cccc2cccnc12 | Caco-2 monolayer | – | – | – | baseline: Papp B-A over Papp A-B | efflux ratio | 1.85 |
| C/C=C/C=C/C(=O)O | PH5CH8 (oleate-loaded) | – | – | 72 h, together with: sodium oleate 1 mM | – | CC50 | > 10 µM |
| CCCOC(=O)C1CCN(C(=O)c2ccc(N(C)Cc3cnc4nc(N)nc(N)c4n3)cc2)CC1 | THP-1-derived macrophages | MTT | – | – | – | CC50 | 50 to 100 µM |
| Cc1ccc(-c2nc(NS(=O)(=O)c3ccc(C)cc3)nc(N)c2-c2nc3ccccc3s2)cc1 | FRhK-4 | cytotoxicity | – | 72 h | – | maximum non-toxic concentration | 100 µg/mL |
| C#CCN(Cc1cnc2nc(N)nc(N)c2n1)c1ccc(C(=O)N2CCC(C(=O)OC)CC2)cc1 | THP-1-derived macrophages | MTT | – | – | – | CC50 | > 100 µM |
| Cc1cc(C(=O)NC(C)(C)COc2cccc3c2C(N)=NS(=O)(=O)N3)cc(C)n1 | human peripheral blood lymphocytes | CBPI, preliminary test | – | 2 µg/mL, 24 h | baseline: vehicle control | cytotoxicity | 12% |
| CN[C@H](CC(C)C)C(=O)N[C@H]1C(=O)N[C@@H](CC(N)=O)C(=O)N[C@H]2C(=O)N[C@H]3C(=O)N[C@H](C(=O)N[C@H](C(=O)O)c4cc(O)cc(O)c4-c4cc3ccc4O)[C@H](O)c3ccc(c(Cl)c3)Oc3cc2cc(c3O[C@@H]2O[C@H](CO)[C@@H](O)[C@H](O)[C@H]2O[C@H]2C[C@](C)(N)[C@H](O)[C@H](C)O2)Oc2ccc(cc2Cl)[C@H]1O | ciPTEC overexpressing OAT-1 | – | – | 24 h, 37 °C, serum-free medium | – | TC50 | > 1000 µM |
| O=c1c(O[C@@H]2O[C@H](CO)[C@H](O)[C@H](O)[C@H]2O)c(-c2ccc(O)c(O)c2)oc2cc(O)cc(O)c12 | Caco-2 monolayer | transwell permeability | – | 100 µg/mL, apical to basolateral, HBSS, DMSO 1%, together with: SDS 10 mg/mL | baseline: SDS alone | Papp increase | 5.3% |
| O=C(CNc1nc(NS(=O)(=O)c2ccccc2)ncc1-c1nc2ccccc2s1)c1ccc(Cl)cc1 | FRhK-4 | cytotoxicity | – | 72 h | – | maximum non-toxic concentration | 110 µg/mL |
| CN1CCN(c2ccc3[nH]c(-c4ccc5[nH]c(-c6cccc(OCCCC(=O)N(C)CCCCN(CC(N)=O)C(=O)[C@H](Cc7ccc(O)cc7)NC(=O)[C@H](Cc7ccc(O)cc7)NC(=O)[C@H](Cc7ccc(O)cc7)NC(=O)[C@H](Cc7ccc(O)cc7)NC(=O)CCCOc7cccc(-c8nc9ccc(-c%10nc%11ccc(N%12CCN(C)CC%12)cc%11[nH]%10)cc9[nH]8)c7)c6)nc5c4)nc3c2)CC1 | human DM1 myotubes | – | – | 5 µM | – | toxicity | toxic |
| CCOC(=O)C1CCN(C(=O)c2ccc(N(CC)Cc3cnc4nc(N)nc(N)c4n3)cc2)CC1 | THP-1-derived macrophages | MTT | – | – | – | CC50 | 50 to 100 µM |
| Cc1ccc(S(=O)(=O)Nn2c(N)c(-c3nc4ccccc4s3)c3[nH]nc(N)c3c2=O)cc1 | FRhK-4 | – | – | 72 h | – | maximum non-toxic concentration | 90 µg/mL |
| COc1cc(/C=C/C(=O)C(=Cc2ccccc2)C(=O)/C=C/c2ccc(O)c(OC)c2)ccc1O | WRL68 | MTT | – | 0.4 µg/mL, 48 h, 10% FBS | – | viability | 11.9% and 12.4% |
| Nc1nc(NS(=O)(=O)c2ccccc2)nc(-c2ccccc2)c1-c1nc2ccccc2s1 | FRhK-4 | cytotoxicity | – | 72 h | – | maximum non-toxic concentration | 90 µg/mL |
| CCSc1c(-c2nc3ccccc3s2)c(N)n(NS(=O)(=O)c2ccccc2)c(=O)c1C#N | FRhK-4 | – | – | 72 h | – | maximum non-toxic concentration | 120 µg/mL |

Excerpt of the above:
| Structure (SMILES) | target or system | test | system | conditions | scale | endpoint | result |
| --- | --- | --- | --- | --- | --- | --- | --- |
| CC(C(=O)Nc1ccc(C2CCCCC2)cc1)n1cncn1 (stereo not drawn) | – | – | cynomolgus liver microsomes | 1 µM | – | hepatic clearance | 25 mL/min/kg |
| COC(=O)C1CCN(C(=O)c2ccc(NCc3cnc4nc(N)nc(N)c4n3)cn2)CC1 | THP-1-derived macrophages | MTT | – | – | – | CC50 | > 100 µM |
| CCCOC(=O)C1CCN(C(=O)c2ccc(N(C)Cc3cnc4nc(N)nc(N)c4n3)cc2)CC1 | THP-1-derived macrophages | MTT | – | – | – | CC50 | 50 to 100 µM |
